Measured values collected from several papers.
Protocols differ between the studies behind these lines. Several values in a cell are separate wells, animals, samples, runs or records. Numbers after ± are the reported error.
TDP1: Tyrosyl-DNA phosphodiesterase 1 (TDP1, Homo sapiens, UniProt Q9NUW8)
UniProt Q9NUW8, sequence (whole entry, looked up): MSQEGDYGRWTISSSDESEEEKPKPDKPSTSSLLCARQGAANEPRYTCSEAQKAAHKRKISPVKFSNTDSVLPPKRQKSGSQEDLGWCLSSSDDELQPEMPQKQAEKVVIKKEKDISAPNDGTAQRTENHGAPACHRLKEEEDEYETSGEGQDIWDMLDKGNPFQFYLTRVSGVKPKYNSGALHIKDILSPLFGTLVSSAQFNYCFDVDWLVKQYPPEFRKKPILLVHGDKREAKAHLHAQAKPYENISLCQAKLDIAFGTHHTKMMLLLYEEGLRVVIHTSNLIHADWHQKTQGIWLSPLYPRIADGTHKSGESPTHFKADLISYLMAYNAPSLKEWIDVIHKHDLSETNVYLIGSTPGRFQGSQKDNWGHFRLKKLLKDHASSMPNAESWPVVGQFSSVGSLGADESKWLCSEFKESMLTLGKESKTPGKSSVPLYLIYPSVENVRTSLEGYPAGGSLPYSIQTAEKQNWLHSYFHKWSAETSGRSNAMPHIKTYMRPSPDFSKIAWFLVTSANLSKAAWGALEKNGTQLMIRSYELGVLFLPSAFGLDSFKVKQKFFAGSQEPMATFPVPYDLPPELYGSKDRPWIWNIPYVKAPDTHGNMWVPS
NTSR1: Neurotensin receptor type 1 (NTSR1, Homo sapiens, UniProt P30989)
UniProt P30989, sequence (whole entry, looked up): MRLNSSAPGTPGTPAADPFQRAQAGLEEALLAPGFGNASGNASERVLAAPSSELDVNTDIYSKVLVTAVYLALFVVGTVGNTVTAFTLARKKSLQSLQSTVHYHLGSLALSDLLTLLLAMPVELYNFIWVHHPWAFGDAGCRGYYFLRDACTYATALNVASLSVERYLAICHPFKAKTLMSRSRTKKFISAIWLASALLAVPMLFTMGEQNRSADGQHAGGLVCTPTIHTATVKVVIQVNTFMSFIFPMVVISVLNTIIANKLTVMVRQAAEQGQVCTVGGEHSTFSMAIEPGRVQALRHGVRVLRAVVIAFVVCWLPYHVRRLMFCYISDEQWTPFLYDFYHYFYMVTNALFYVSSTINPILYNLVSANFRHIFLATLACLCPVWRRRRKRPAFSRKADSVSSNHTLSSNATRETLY
1-phosphatidylinositol 4,5-bisphosphate phosphodiesterase gamma-1 residues 21-1215: 1-phosphatidylinositol 4,5-bisphosphate phosphodiesterase gamma-1, residues 21-1215 (Rattus norvegicus, UniProt P10686)
UniProt P10686, sequence (21-1215, looked up): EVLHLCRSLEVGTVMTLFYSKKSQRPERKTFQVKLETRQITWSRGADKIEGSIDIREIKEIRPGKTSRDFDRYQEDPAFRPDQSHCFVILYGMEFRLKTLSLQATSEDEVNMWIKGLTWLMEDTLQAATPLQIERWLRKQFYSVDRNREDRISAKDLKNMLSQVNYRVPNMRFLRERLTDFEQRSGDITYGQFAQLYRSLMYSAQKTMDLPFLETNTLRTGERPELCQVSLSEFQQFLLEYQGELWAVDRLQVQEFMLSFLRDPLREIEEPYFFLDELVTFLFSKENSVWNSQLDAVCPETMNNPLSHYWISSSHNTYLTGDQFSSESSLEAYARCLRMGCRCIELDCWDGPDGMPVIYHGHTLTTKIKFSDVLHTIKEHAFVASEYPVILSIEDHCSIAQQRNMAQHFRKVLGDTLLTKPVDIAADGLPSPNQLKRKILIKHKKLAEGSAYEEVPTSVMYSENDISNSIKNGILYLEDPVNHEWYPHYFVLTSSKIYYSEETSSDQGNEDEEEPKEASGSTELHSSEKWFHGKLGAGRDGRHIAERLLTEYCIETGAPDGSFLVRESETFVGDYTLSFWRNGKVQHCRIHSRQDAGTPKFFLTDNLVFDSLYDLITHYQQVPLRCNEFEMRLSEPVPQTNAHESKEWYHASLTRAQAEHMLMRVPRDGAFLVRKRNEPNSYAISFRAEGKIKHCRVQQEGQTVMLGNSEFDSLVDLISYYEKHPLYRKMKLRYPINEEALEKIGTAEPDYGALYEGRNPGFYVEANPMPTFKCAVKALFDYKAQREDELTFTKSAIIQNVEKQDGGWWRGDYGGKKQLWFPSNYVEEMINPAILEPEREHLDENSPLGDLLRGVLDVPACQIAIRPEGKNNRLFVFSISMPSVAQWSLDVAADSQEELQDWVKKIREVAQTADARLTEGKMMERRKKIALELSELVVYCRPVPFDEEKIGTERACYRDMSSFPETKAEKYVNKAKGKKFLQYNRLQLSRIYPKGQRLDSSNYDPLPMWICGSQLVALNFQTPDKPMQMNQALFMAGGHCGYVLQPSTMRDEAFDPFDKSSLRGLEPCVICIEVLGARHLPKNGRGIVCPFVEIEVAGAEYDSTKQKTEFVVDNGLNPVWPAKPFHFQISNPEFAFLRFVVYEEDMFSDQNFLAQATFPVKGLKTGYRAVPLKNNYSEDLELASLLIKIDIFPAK
C3ar1: C3a anaphylatoxin chemotactic receptor (C3ar1, Mus musculus, UniProt O09047)
UniProt P46089, sequence (whole entry, unmodified, looked up): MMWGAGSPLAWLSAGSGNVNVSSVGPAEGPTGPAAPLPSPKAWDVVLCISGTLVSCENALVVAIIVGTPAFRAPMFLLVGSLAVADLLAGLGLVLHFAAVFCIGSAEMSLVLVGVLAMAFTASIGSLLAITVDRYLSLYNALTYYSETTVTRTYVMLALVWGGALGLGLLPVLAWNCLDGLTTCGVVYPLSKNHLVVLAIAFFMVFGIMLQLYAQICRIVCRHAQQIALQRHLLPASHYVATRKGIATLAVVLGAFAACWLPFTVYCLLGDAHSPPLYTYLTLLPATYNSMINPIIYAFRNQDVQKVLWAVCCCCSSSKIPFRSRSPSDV
UniProt O09047, sequence (whole entry, looked up): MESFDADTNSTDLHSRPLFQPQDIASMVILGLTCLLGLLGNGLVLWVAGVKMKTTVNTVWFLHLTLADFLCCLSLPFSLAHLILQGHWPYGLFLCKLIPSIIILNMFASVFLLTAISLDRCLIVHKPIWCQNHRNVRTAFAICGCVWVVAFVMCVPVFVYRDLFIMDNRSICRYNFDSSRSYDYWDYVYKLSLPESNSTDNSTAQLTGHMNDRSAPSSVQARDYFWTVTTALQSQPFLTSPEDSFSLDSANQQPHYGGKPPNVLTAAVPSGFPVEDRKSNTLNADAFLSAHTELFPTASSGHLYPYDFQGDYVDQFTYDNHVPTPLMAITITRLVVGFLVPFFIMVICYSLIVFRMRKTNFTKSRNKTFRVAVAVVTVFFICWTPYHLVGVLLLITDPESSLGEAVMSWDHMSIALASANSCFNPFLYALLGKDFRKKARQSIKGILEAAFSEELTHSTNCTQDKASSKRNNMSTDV
UniProt A7T1N0, sequence (whole entry, unmodified, looked up): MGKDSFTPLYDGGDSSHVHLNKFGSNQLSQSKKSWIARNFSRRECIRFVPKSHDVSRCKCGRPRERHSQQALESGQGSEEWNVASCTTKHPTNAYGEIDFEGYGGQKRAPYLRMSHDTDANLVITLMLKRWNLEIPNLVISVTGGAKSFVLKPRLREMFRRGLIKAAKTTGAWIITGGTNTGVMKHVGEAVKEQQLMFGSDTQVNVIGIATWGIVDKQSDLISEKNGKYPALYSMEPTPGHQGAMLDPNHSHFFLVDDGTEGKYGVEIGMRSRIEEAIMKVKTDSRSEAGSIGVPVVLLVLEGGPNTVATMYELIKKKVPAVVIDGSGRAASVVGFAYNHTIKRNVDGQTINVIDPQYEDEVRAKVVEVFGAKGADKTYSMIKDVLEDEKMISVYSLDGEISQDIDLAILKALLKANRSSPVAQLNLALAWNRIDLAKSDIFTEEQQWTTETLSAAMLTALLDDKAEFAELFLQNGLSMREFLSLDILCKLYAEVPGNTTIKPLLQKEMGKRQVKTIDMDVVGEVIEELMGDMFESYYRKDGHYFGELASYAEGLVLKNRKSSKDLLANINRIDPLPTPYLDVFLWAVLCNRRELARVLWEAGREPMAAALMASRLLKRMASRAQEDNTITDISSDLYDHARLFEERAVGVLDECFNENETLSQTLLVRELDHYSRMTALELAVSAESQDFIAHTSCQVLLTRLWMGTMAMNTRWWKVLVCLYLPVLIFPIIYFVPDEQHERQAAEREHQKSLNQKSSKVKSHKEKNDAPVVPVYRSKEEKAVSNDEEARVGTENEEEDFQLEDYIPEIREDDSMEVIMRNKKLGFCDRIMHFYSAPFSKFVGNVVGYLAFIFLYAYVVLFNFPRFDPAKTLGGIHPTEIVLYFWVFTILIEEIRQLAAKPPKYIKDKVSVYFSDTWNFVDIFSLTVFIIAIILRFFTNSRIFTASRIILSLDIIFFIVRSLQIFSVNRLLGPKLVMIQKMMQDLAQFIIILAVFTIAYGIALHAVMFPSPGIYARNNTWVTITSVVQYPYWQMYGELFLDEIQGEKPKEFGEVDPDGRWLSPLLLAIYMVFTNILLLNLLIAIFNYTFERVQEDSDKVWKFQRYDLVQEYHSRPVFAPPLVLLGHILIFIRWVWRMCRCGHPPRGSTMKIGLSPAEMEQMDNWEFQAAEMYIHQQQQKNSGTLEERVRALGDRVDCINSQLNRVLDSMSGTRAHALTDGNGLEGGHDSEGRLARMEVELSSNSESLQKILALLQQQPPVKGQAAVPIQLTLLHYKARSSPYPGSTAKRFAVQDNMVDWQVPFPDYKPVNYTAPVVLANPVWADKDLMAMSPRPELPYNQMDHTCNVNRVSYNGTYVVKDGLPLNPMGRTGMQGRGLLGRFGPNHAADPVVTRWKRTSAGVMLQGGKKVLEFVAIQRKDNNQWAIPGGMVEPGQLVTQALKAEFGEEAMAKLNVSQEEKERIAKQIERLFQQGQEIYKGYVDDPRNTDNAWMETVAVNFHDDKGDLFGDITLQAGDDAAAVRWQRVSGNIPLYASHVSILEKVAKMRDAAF
UniProt Q15391, sequence (whole entry, unmodified, looked up): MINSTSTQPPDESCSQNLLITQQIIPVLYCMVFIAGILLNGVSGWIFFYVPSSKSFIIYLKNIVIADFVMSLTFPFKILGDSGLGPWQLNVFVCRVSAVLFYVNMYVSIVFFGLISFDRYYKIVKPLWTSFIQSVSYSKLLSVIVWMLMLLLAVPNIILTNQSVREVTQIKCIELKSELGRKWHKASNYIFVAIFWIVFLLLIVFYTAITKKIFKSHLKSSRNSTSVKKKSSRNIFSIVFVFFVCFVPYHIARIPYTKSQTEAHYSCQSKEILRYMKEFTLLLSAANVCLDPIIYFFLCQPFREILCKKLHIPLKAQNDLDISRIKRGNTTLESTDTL

N#Cc1ccc(-c2ccc(C=NOCc3ccc(-c4nc5cc(-c6ccccc6)ccn5c4Nc4ccc(C(=O)O)cc4)cc3)cc2)nc1 — inhibition (TDP1; enzyme activity, inhibitor; 100 µM, unpurified oxime): 98.7%
COc1ccccc1C1CCN(c2nc(C3(F)CC3)nc3ccc(N(C)CCN4CCOCC4)cc23)CC1 — EC50 (NTSR1; β-arrestin recruitment, agonist): 7.46 µM
COc1ccc(C(=O)c2c(C(=O)NCCCN(C)C)oc3ccc(Cl)cc3c2=O)cc1OC — EC50 (GHSR (Homo sapiens, UniProt Q92847, P200A); intracellular Ca2+, agonist; HEK293T transiently transfected): 2.09 µM
COc1cc(C2C(NC(=O)c3ccc(NC(=O)OC(C)(C)C)cc3)(C(=O)O)C(c3ccc(OC(=O)c4cccs4)c(OC)c3)C2(NC(=O)c2ccc(NC(=O)OC(C)(C)C)cc2)C(=O)O)ccc1OC(=O)c1cccs1 (stereo not drawn) — EC50 (GLP1R (Homo sapiens, UniProt P43220, W33A); cAMP, agonist): 0.741 µM
CCc1cc(O)cc2c(/C=N/NC(=N)NCCc3ccc(Cl)cc3)c[nH]c12 — EC50 (RXFP4 (Homo sapiens, UniProt Q8TDU9, V122A); agonist): 0.00759 µM
C/C(=C/CC[C@@H](C)[C@H]1CC[C@@]2(C)C3=C([C@@H](O[C@@H]4O[C@H](CO)[C@@H](O)[C@H](O)[C@H]4O)C[C@]12C)[C@@]1(C)CCC(=O)C(C)(C)[C@@H]1CC3)C(=O)O — EC50 (TAS2R46 (Homo sapiens, UniProt P59540); calcium signal, agonist, fluorescence): 1.5 µM
N[C@@H](Cc1c[nH]c2ccc(OCc3ccc(-c4ccccc4)cc3)cc12)C(=O)O — EC50 (SLC7A5 (Homo sapiens, UniProt Q01650); leucine uptake; HT-29; added: [3H]-L-leucine): 19.2 µM
O=C(Cc1ccc(OCc2ccccc2)cc1)NC1(C(=O)O)CCN(C(=O)c2ccc(-c3cccc(Cl)c3)cc2)CC1 — EC50 (GPR55 (Homo sapiens, UniProt Q9Y2T6); cAMP, agonist, luciferase): > 10 µM
COc1ccccc1C1CCN(c2nc(C3CCCC3)nc3ccc(N(C)CCO)cc23)CC1 — EC50 (NTSR1; β-arrestin recruitment, agonist): 15.1 µM
CCCn1c(=O)c2cc(F)ccc2n2c(=S)[nH]nc12 — EC50 (1-phosphatidylinositol 4,5-bisphosphate phosphodiesterase gamma-1 residues 21-1215; enzyme activity, activator; lipid vesicles; 15 min preincubation, added: XY-69 substrate 0.5 µM): 12 µM
CC(C)C[C@H](NC(=O)[C@H](Cc1ccccc1)NC(=O)[C@H](CCCNC(=N)N)NC(=O)[C@H](CCC(N)=O)NC(=O)[C@H](CC(C)C)NC(=O)C(C)(C)NC(=O)[C@H](C)NC(=O)[C@H](CCC(=O)O)NC(=O)[C@H](CCC(=O)O)NC(=O)[C@H](CCCCNC(=O)COCCOCCNC(=O)COCCOCCNC(=O)CC[C@H](NC(=O)CCCCCCCCCCCCCCCCCCC(=O)O)C(=O)O)NC(=O)[C@H](CC(C)C)NC(=O)[C@H](Cc1ccc(O)cc1)NC(=O)[C@H](CO)NC(=O)[C@@H](NC(=O)[C@H](CC(=O)O)NC(=O)[C@H](CO)NC(=O)[C@@H](NC(=O)[C@H](Cc1ccccc1)NC(=O)[C@@H](NC(=O)CNC(=O)[C@H](CCC(=O)O)NC(=O)C(C)(C)NC(=O)[C@@H](N)Cc1c[nH]cn1)[C@@H](C)O)[C@@H](C)O)C(C)C)C(=O)N[C@@H](CCC(=O)O)C(=O)N[C@@H](Cc1c[nH]cn1)C(=O)N[C@@H](CC(C)C)C(=O)N[C@H](C(N)=O)C(C)C — EC50 (GLP2R (Homo sapiens, UniProt O95838); agonist): > 5 µM
COc1ccccc1C1CCN(c2nc(C#CC3CC3)nc3ccc(N(C)CCO)cc23)CC1 — EC50 (NTSR1; β-arrestin recruitment, agonist): ~15600 µM
COc1ccccc1C1CCN(c2nc(C3(F)CC3)nc3cc(Cl)c(N(C)CCO)cc23)CC1 — EC50 (NTSR1; β-arrestin recruitment, agonist): 17.5 µM
CC(C)C[C@H](NC(=O)[C@H](C)NC(=O)[C@H](CO)NC(=O)[C@@H]1CCCN1C(=O)[C@@H]1CCCN1C(=O)[C@H](CCC(N)=O)NC(=O)[C@H](CC(C)C)NC(=O)[C@@H](N)[C@@H](C)O)C(=O)N[C@@H](CCCNC(=N)N)C(=O)N[C@@H](CCCNC(=N)N)C(=O)N[C@@H](CCCNC(=N)N)C(=O)N[C@@H](Cc1c[nH]cn1)C(=O)N[C@@H](Cc1ccc(O)cc1)C(=O)N[C@@H](Cc1c[nH]cn1)C(=O)N[C@@H](Cc1c[nH]cn1)C(=O)N[C@@H](C)C(=O)N[C@@H](CC(C)C)C(=O)N1CCC[C@H]1C(=O)N1CCC[C@H]1C(=O)N[C@@H](CO)C(=O)N[C@@H](CCCNC(=N)N)C(=O)O — EC50 (C3ar1; GoA protein dissociation, agonist, NanoBiT): 0.214 µM
CC(C)[C@H](NC(=O)[C@@H]1CSSC(C)(C)[C@H](NC(=O)[C@@H](N)CC(=O)O)C(=O)N[C@@H](Cc2ccccc2)C(=O)N[C@H](Cc2c[nH]c3ccccc23)C(=O)N[C@@H](CCCN)C(=O)N[C@@H](Cc2ccc(O)cc2)C(=O)N1)C(=O)O — EC50 (UTS2R (Homo sapiens, UniProt Q9UKP6); Gi3 activation, agonist, BRET2; HEK293): 0.0195 µM
O=C(O)c1ccc(Nc2c(-c3ccc(CON=Cc4cncn4Cc4ccccc4)cc3)nc3cc(-c4ccccc4)ccn23)cc1 (mixture of isomers) — inhibition (TDP1; enzyme activity, inhibitor; 100 µM, unpurified compound): 54.7%
COc1ccccc1C1CCN(c2nc(C3CC3)nc3c(C)cc(N(C)CCO)cc23)CC1 — EC50 (NTSR1; β-arrestin recruitment, agonist): 9.6 µM
Nc1ncnc2c1ncn2[C@@H]1O[C@H](COP(=O)(O)OP(=O)(O)OC[C@H]2OC(O)[C@H](O)[C@@H]2O)[C@@H](O)[C@H]1OP(=O)(O)O (stereo partly drawn) — EC50 (TRPM2 (Nematostella vectensis, UniProt A7T1N0, E101C); agonist): 0.19 ± 0.008 µM
O=C(O)Cc1ccccc1Nc1c(Cl)cccc1Cl — EC50 (1-phosphatidylinositol 4,5-bisphosphate phosphodiesterase gamma-1 residues 21-1215; enzyme activity, activator; lipid vesicles; 15 min preincubation, added: XY-69 substrate 0.5 µM): 49 µM
COc1ccccc1C1CCN(c2nc(C3(F)CC3)nc3cnc(N(C)CCO)cc23)CC1 — EC50 (NTSR1; β-arrestin recruitment, agonist): 13 µM
COc1ccccc1C1CCN(c2nc(C3(F)CC3)nc3ccc(N(C)CCO)cc23)CC1 — EC50 (NTSR1; β-arrestin recruitment, agonist): 5.99 µM
Cc1cc(C)cc([C@@H]2CCCN2Cc2ccc(Oc3ccc(C(N)=O)cc3F)cc2)c1 — EC50 (OPRK1 (Homo sapiens, UniProt P41145, I135L); agonist): 0.29 µM
COc1ccc(OC[C@H]2c3cccn3CC(=O)N2Cc2cccc(F)c2)cc1 — EC50 (Glutamate NMDA receptor; Grin1/Grin2c (Rattus norvegicus, UniProt P35439+Q00961); activator; cells): 0.8 µM
CC(C)C[C@H](NC(=O)[C@@H](N)[C@@H](C)O)C(=O)N[C@@H](CCC(N)=O)C(=O)N1CCC[C@H]1C(=O)N1CCC[C@H]1C(=O)N[C@@H](C)C(=O)N[C@@H](CO)C(=O)N[C@@H](CO)C(=O)N[C@@H](CCCNC(=N)N)C(=O)N[C@@H](CCCNC(=N)N)C(=O)N[C@@H](CCCNC(=N)N)C(=O)N[C@@H](Cc1c[nH]cn1)C(=O)N[C@@H](Cc1ccccc1)C(=O)N[C@@H](Cc1c[nH]cn1)C(=O)N[C@@H](Cc1c[nH]cn1)C(=O)N[C@@H](C)C(=O)N[C@@H](CC(C)C)C(=O)N1CCC[C@H]1C(=O)N1CCC[C@H]1C(=O)N[C@@H](C)C(=O)N[C@@H](CCCNC(=N)N)C(=O)O — EC50 (C3ar1; GoA protein dissociation, agonist, NanoBiT): 0.0288 µM
O=c1ccn([C@@H]2O[C@H](COP(=O)(O)CP(=O)(O)O)[C@@H](O)[C@H]2O)c(=S)[nH]1 — EC50 (P2Y purinoceptor 14 (P2RY14, Homo sapiens, UniProt Q15391, D81A); calcium mobilisation, agonist; cells with Gαqi5; receptor mutant D81A): 0.241 µM
CCCN(C)c1ccc2nc(C3CC3)nc(N3CCC(c4ccccc4OC)CC3)c2c1 — EC50 (NTSR1; β-arrestin recruitment, agonist): 2.17 µM
CCCCCCCC/C=C\CCCCCCCC(=O)NCCO — EC50 (Trpv1 (Mus musculus, UniProt Q704Y3, S511T); ion current, agonist, whole-cell patch clamp; 24 °C, S511T, +80 mV): 0.36 ± 0.22 µM
Cc1cc(C)c(S(=O)(=O)Nc2cccc(C(F)(F)F)c2)c(C)c1 — EC50 (1-phosphatidylinositol 4,5-bisphosphate phosphodiesterase gamma-1 residues 21-1215; enzyme activity, activator; lipid vesicles; 15 min preincubation, added: XY-69 substrate 0.5 µM): > 100 µM
COc1cc2nc(Cc3ccccc3)nc(N3CCN(c4ccccc4OC)CC3)c2cc1OC — EC50 (NTSR1; β-arrestin recruitment, agonist): 158 µM
CC(C)Oc1cc(Cl)ccc1CNc1cc(-c2ccccc2)nc2ncnn12 — EC50 (GPR3 (Homo sapiens, UniProt P46089, M156A); cAMP level, agonist, GloSensor; receptor M156A mutant): 2.09 µM and 1.35 µM and 0.933 µM and 1 µM

Some of these lines once more:
COc1ccccc1C1CCN(c2nc(C#CC3CC3)nc3ccc(N(C)CCO)cc23)CC1 — EC50 (NTSR1; β-arrestin recruitment, agonist): ~15600 µM
COc1ccccc1C1CCN(c2nc(C3(F)CC3)nc3cc(Cl)c(N(C)CCO)cc23)CC1 — EC50 (NTSR1; β-arrestin recruitment, agonist): 17.5 µM
CC(C)C[C@H](NC(=O)[C@H](C)NC(=O)[C@H](CO)NC(=O)[C@@H]1CCCN1C(=O)[C@@H]1CCCN1C(=O)[C@H](CCC(N)=O)NC(=O)[C@H](CC(C)C)NC(=O)[C@@H](N)[C@@H](C)O)C(=O)N[C@@H](CCCNC(=N)N)C(=O)N[C@@H](CCCNC(=N)N)C(=O)N[C@@H](CCCNC(=N)N)C(=O)N[C@@H](Cc1c[nH]cn1)C(=O)N[C@@H](Cc1ccc(O)cc1)C(=O)N[C@@H](Cc1c[nH]cn1)C(=O)N[C@@H](Cc1c[nH]cn1)C(=O)N[C@@H](C)C(=O)N[C@@H](CC(C)C)C(=O)N1CCC[C@H]1C(=O)N1CCC[C@H]1C(=O)N[C@@H](CO)C(=O)N[C@@H](CCCNC(=N)N)C(=O)O — EC50 (C3ar1; GoA protein dissociation, agonist, NanoBiT): 0.214 µM
CC(C)[C@H](NC(=O)[C@@H]1CSSC(C)(C)[C@H](NC(=O)[C@@H](N)CC(=O)O)C(=O)N[C@@H](Cc2ccccc2)C(=O)N[C@H](Cc2c[nH]c3ccccc23)C(=O)N[C@@H](CCCN)C(=O)N[C@@H](Cc2ccc(O)cc2)C(=O)N1)C(=O)O — EC50 (UTS2R (Homo sapiens, UniProt Q9UKP6); Gi3 activation, agonist, BRET2; HEK293): 0.0195 µM
